Experimental data pooled from the literature.
± marks the error that the study gave.

C[C@H]1C(=O)O[C@@H]2O[C@@]3(C)CC[C@@H]4[C@@]2(OO3)[C@H]1CC[C@]4(C)O
Tmax (human; dose not given, day 2): 2 ± 1.3 h

CC1(C)C(=O)N(c2ccc(C#N)c(C(F)(F)F)c2)C(=S)N1c1ccc(C(N)=O)c(F)c1
Tmax (healthy male humans, plasma; oral, 40 mg, fasting, soft capsules): 216 ± 35.5 h

CN[C@H](CC(C)C)C(=O)N[C@H]1C(=O)N[C@@H](CC(N)=O)C(=O)N[C@H]2C(=N)N[C@H]3C(=O)N[C@H](C(=O)N[C@H](C(=O)NCCCNC(=N)N)c4cc(O)cc(O)c4-c4cc3ccc4O)[C@H](O)c3ccc(c(Cl)c3)Oc3cc2cc(c3O[C@@H]2O[C@H](CO)[C@@H](O)[C@H](O)[C@H]2O[C@H]2C[C@](C)(NCc3ccc(-c4ccc(Cl)cc4)cc3)[C@H](O)[C@H](C)O2)Oc2ccc(cc2Cl)[C@H]1O
Tmax (mouse; intravenous, 10 mg/kg): 0.36 h

CN1CCCCC1C(=O)NC(Cc1ccc(-c2ccccc2)cc1)B(O)O (stereo not drawn)
Tmax (rat, plasma; oral, 1 mg/kg): 0.5 h

O=C1NC2(CC2)COc2ncc(F)cc2[C@H]2COCCN2c2ccn3ncc1c3n2
organ-to-body weight ratio (Sprague-Dawley rat, male, thymus; oral, 20 mg/kg/day, 4 weeks, end of treatment): 0.14 ± 0.023%

CCOc1ccccc1-n1c(CN2CCNCC2)nc2ccccc2c1=O
Tmax (C57BL/6 mouse, male, plasma; intravenous, 1 mg/kg): 0.08 h

CCCCCCCCCCCCCCCC(=O)N[C@@H](CCC(=O)NCCOCCOCCC(=O)NCCOCCOCCC(=O)NCCCC[C@H](NC(=O)[C@H](CC(=O)O)NC(=O)[C@H](CC(C)C)NC(=O)[C@H](Cc1ccc(O)cc1)NC(=O)[C@H](CCCCN)NC(=O)[C@H](CO)NC(=O)[C@H](Cc1ccc(O)cc1)NC(=O)[C@H](CC(=O)O)NC(=O)[C@H](CO)NC(=O)[C@@H](NC(=O)[C@H](Cc1ccccc1)NC(=O)[C@@H](NC(=O)CNC(=O)[C@H](CCC(N)=O)NC(=O)[C@@H](CO)NC(=O)[C@@H](N)Cc1c[nH]cn1)[C@@H](C)O)[C@@H](C)O)C(=O)N[C@@H](CCCNC(=N)N)C(=O)N[C@@H](CCCNC(=N)N)C(=O)N[C@@H](C)C(=O)N[C@@H](CCC(N)=O)C(=O)N[C@@H](CC(=O)O)C(=O)N[C@@H](Cc1ccccc1)C(=O)N[C@H](C(=O)N[C@@H](CCC(N)=O)C(=O)N[C@@H](Cc1c[nH]c2ccccc12)C(=O)N[C@@H](CC(C)C)C(=O)N[C@@H](CC(C)C)C(=O)N[C@@H](CC(N)=O)C(=O)N[C@H](C(=O)NCC(=O)NCC(=O)N1CCC[C@H]1C(=O)N[C@@H](CO)C(=O)N[C@@H](CO)C(=O)NCC(=O)N[C@@H](C)C(=O)N1CCC[C@H]1C(=O)N1CCC[C@H]1C(=O)N1CCC[C@H]1C(=O)N[C@@H](CO)C(N)=O)[C@@H](C)O)C(C)C)C(=O)O
Tmax (male rhesus monkey, plasma; subcutaneous, 300 µg/kg, day 1, median): 2 h

NC1CCN(C(=O)Oc2ccc(C3CCCC4(C3)OOC3(O4)C4CC5CC(C4)CC3C5)cc2)CC1 (racemic)
Tmax (male Sprague-Dawley rat, plasma; intravenous, 10 mg/kg): 0.083 h

CC1(C)C(=O)N(c2ccc(C#N)c(C(F)(F)F)c2)C(=S)N1c1ccc(C(=O)O)c(F)c1
Tmax (human, male, plasma; oral, 80 mg, single dose, fasting): 96 ± 39.6 h

Some of these lines once more:
CCCCCCCCCCCCCCCC(=O)N[C@@H](CCC(=O)NCCOCCOCCC(=O)NCCOCCOCCC(=O)NCCCC[C@H](NC(=O)[C@H](CC(=O)O)NC(=O)[C@H](CC(C)C)NC(=O)[C@H](Cc1ccc(O)cc1)NC(=O)[C@H](CCCCN)NC(=O)[C@H](CO)NC(=O)[C@H](Cc1ccc(O)cc1)NC(=O)[C@H](CC(=O)O)NC(=O)[C@H](CO)NC(=O)[C@@H](NC(=O)[C@H](Cc1ccccc1)NC(=O)[C@@H](NC(=O)CNC(=O)[C@H](CCC(N)=O)NC(=O)[C@@H](CO)NC(=O)[C@@H](N)Cc1c[nH]cn1)[C@@H](C)O)[C@@H](C)O)C(=O)N[C@@H](CCCNC(=N)N)C(=O)N[C@@H](CCCNC(=N)N)C(=O)N[C@@H](C)C(=O)N[C@@H](CCC(N)=O)C(=O)N[C@@H](CC(=O)O)C(=O)N[C@@H](Cc1ccccc1)C(=O)N[C@H](C(=O)N[C@@H](CCC(N)=O)C(=O)N[C@@H](Cc1c[nH]c2ccccc12)C(=O)N[C@@H](CC(C)C)C(=O)N[C@@H](CC(C)C)C(=O)N[C@@H](CC(N)=O)C(=O)N[C@H](C(=O)NCC(=O)NCC(=O)N1CCC[C@H]1C(=O)N[C@@H](CO)C(=O)N[C@@H](CO)C(=O)NCC(=O)N[C@@H](C)C(=O)N1CCC[C@H]1C(=O)N1CCC[C@H]1C(=O)N1CCC[C@H]1C(=O)N[C@@H](CO)C(N)=O)[C@@H](C)O)C(C)C)C(=O)O
Tmax (male rhesus monkey, plasma; subcutaneous, 300 µg/kg, day 1, median): 2 h
